# Results of several laboratories.
# Every numbered part comes from another study and shows a few of its results, in no order. Positions count from the first letter of the parent shown.

# Study 1 — target: CCNF, cyclin fold, Cln2 fusion (human); method: yeast growth competition, sequencing; medium: yeast; notes: strong parent motif; reference: not given; direction: higher = stronger binding
# Starting sequence: SCAPER docking peptide (human); SNARRSLNFGGST
Change,normalised enrichment score
SNARISLNFGGST [R5I],1.02
SNARRSTNFGGST [L7T],1.22
SNYRRSLNFGGST [A3Y],4.51
SNARRSLNFGGSH [T13H],7.56
SNARRSLSFGGST [N8S],6.1
SNARRDLNFGGST [S6D],1.09
SNARRSVNFGGST [L7V],0.818
SNARRSLKFGGST [N8K],7.93
SNARRSHNFGGST [L7H],1.03
SNFRRSLNFGGST [A3F],4.17
SNCRRSLNFGGST [A3C],7.58
SNARRSLQFGGST [N8Q],6.97
SNARRSLNFGGTT [S12T],6.99
SNARRSLNFGGMT [S12M],6
SNARRSLNFGQST [G11Q],6.84
SNARRSRNFGGST [L7R],0.889

# Study 2 — method: protein-binding microarray; molecule type: double-stranded DNA, one strand shown; medium: in vitro; concentration: not given; direction: higher = stronger binding
# Target: Hepatocyte nuclear factor 3-beta, forkhead domain (FOXA2, Homo sapiens, UniProt Q9Y261, residues 142-269)
# Notes: k-mer, scored over probes, only values ≥0.25
# Construct (chain): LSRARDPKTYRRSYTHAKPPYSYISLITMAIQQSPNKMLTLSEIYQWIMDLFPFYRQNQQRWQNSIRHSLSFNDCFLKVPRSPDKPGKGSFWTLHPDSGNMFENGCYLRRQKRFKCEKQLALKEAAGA
Sequence,E-score
ATAAGTCA,0.296
ACAGAATA,0.313
CAAATAGA,0.34
CATAATAC,0.326
CCACATAC,0.268
CATATCAA,0.28
CATCACCA,0.307
ACTAACAT,0.282
AATCTATG,0.256
AAACATAA,0.259
AAAATATG,0.26
ACATATAT,0.435
GTTGTTGA,0.303
ATATGTAG,0.331
ATAAATTG,0.255

# Study 3 — method: DHFR PCA, deep sequencing; medium: yeast; together with: (+)-ABA 4.8 µM; reference: wild-type fitted maximum; direction: higher = stronger binding
# Target: ABI1, truncated, D143A, DHFR fusion (Arabidopsis thaliana)
# Notes: methotrexate growth selection, single substitutions
# Starting sequence: PYL1, truncated, DHFR fusion (Arabidopsis thaliana); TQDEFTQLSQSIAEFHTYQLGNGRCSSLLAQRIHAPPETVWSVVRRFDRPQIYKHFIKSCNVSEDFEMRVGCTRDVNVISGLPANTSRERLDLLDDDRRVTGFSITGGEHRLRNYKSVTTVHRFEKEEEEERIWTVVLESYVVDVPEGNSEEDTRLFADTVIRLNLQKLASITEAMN; partner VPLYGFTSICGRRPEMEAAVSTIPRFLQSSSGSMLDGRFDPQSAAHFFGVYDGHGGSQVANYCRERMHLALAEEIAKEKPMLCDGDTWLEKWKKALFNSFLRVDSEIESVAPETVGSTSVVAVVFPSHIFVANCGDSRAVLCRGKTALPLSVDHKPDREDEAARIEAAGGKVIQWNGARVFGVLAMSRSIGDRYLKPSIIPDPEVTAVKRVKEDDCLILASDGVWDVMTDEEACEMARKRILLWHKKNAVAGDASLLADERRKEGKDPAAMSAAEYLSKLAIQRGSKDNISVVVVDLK
Change,relative binding score [%]
V118N,20.4
V62Y,17.1
A35L,-3.52
L8Y,72.3
R132V,76.2
T120E,-0.762
H122W,-0.0739
A175D,74.9
G21I,64.5
T39F,48.7
D65V,31.4
V40K,3.9
Y115P,-3.22
G102D,-7.01
F66C,57.1
R24T,65.5

# Study 4 — method: RNA Bind-n-Seq; molecule type: RNA; medium: in vitro; concentration: 365 nM; reference: no-protein control; direction: higher = stronger binding
# Target: RNA binding protein fox-1 homolog 2, RRM domain, GST-SBP tag (RBFOX2, Homo sapiens, UniProt O43251-10, residues 100-194)
# Notes: natural RNA segment, single round, ends assumed
# All sequences stand within: GGGAGUUCUACAGUCCGACGAUC … UGGAAUUCUCGGGUGCCAA
# Construct (chain): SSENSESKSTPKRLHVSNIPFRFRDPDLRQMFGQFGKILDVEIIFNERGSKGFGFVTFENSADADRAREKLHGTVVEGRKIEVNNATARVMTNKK
Sequence,RBNS enrichment (R)
AAGUUGCAGCCUUUUUUAUAUUGCCUGCCAAAAUUUGAAGUAUUAGAAGAAAGUGUGCCAUGAGAGAAAAACUUAAGGAGUUUUGAAAAGUAAUGCAAAUAACAAAACUG,0.535
UUUUCUUAAUAUCCCUCUAUAAUGCCAGAAAUUGGCAUAAAUGGUACAUUCACUAAAUUUAUCAAAUAAAUUUAAAACUAGAUUGUUCCUAAGUCCAAUUGUUGAAAUUG,0.365
AAGAGACAGUGCUGUACAUUCUCAUAGAGAUAGAGAAGAUCUAAAAAGUUGAGACUACUCAAUCCAGUUAACAACAGCAGGAGCACUAGAGUUUGUUCAUUUAUUCUCUC,0.437
GCACUUCGUUCAUUAUCAGAAAACUGGAGGAAUUUAGAGAGAGGAAAUCUACGAUUUCUAAUUACCUGGAGUCAGCCCCCACUAGUCUGAGUACUUCGGCAAAUUCACUU,0.344
CGCUGCAAAACGCGCAGAUGUGCAGCAGAUUGGAAGGAGACACAGAUGGUCCUUUUUUUCCUGUUUCUGAAAAAGAAAUAAUAAUAUCCAGGUCAACAGAAUGAAAAAUG,0.227
GAAGGCCUGGGAACAGGAGUGUGCAGGCUGUCCUGAAGAGAGGCUGAGGACAGUGUGAAUAAUUGUAGCCUGACCUUUUGCAUUCUCCAGCUCAGCUGCUAGGAAGACUU,0.578
CAGGAAUACCCAGGGUGGUGGGACUGACAUCAGGGGAGUGGCGUCUGCCCACCCCCCACCCUGUCCCUCCGGGGGUGAACCAGCCAGGCUGCACUACAAUGUCCACAGGC,0.19
AGAAACUCACAUUUUCUUUAAAGCUAUCACACUUUGUCUUCUUAUCCCCUGCUUCCUGUUCCUUCAGCCUCCCUUCCCUUUCCUUCCUGGAUCUCUGAUUAUCUUGUGAU,1.23
GAGCAAUUAGCGCUUGUCAGCUUACCUUACAACACAGAGGGUCCAGCUGUUCACACAAGGGGGCAGGAGCUCUGGUGGGUGUGCAGCCAUGUGGUCACAGCCUGCCAGCA,1.36
GAUUUUGCCCUGUAACUGCAUGUACAUGGUGUAUUUUGCCAUUAAGUCUUUUAUUUGUGGCAAUUUUGCCUUAGUAGGCGCUUGGCGUAGUUUCUAUUUUAUAGAAUAUU,2.76
AUACAUAUUUUGAAAGAGGGGAAAUGUAGCAGAUAGUUCACAAGCUGCGGGUUGUAGCUAAAUAUUCCAUUUCUUUGAAAUCAUGUUUCUAAAUUCUUUACCAUCAGAAA,0.487
AGUUAGCAUUUAUUGUUUUGAUGAAACGUGACACAUCAUGGGAUAUAUAUAUAUAUAUAAAGAACUUAAUUCUUGUGGUGCAGUCUUGAUAGUUUUGAAUGUUGCUUAAA,1.43

# Study 5 — method: protein binding microarray; molecule type: double-stranded DNA, one strand shown; medium: in vitro; concentration: not given; reference: not given; direction: higher = stronger binding
# Target: Histone acetyltransferase KAT6A, both winged helices, GST fusion (KAT6A, Homo sapiens, UniProt Q92794, residues 1-181)
# Notes: 8-mer, flanks averaged, mean of 2 arrays, mostly near background
# Residues (chain): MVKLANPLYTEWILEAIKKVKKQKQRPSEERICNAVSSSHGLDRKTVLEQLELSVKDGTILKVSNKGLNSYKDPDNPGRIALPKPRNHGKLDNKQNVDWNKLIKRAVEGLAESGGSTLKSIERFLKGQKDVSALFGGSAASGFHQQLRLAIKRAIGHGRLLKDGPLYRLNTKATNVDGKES
Sequence,E-score
AGCGCGGA,0.25
CAGCCCGG,0.188
AATGCAGT,-0.0911
GAGTCAAA,-0.0576
CTTGCCCC,-0.147
GACCACTC,-0.137
AGTCCACG,0.074
AAAGCAAC,-0.0298
ATCTTGTA,-0.138
CATGAGGA,-0.0022
CGCCAATA,0.00736
GTCGCAGA,0.175
AAGATCTT,-0.0652
CTGCATCC,-0.13
ATTCAGAA,-0.00384
CCCTAGGA,-0.282
AACGCTCC,0.0376
ACGAAGCG,0.114
GGTTCACA,0.134
AGGGCCAA,-0.119
CACAGACC,0.051
AATCGTCC,0.148
GCTCCGAA,0.102
CACAGCAA,0.0627
GCGATGAA,0.063

# Study 6 — method: protein-binding microarray; molecule type: double-stranded DNA, one strand shown; medium: in vitro; concentration: 2540 nM top; notes: 60-bp whole probe; together with: salmon DNA 0.4 mg/ml; reference: random background probes; direction: higher = stronger binding; all sequences stand within: GCCTAGCAC … GTCTTGATTCGCTTGACGCTGCTG
# Target: Interferon regulatory factor 3, full length, phosphomimetic (IRF3, Homo sapiens, UniProt Q14653, residues 1-427, S386D/S396D/S398D/S402D/T404D/S405D)
# Construct (chain): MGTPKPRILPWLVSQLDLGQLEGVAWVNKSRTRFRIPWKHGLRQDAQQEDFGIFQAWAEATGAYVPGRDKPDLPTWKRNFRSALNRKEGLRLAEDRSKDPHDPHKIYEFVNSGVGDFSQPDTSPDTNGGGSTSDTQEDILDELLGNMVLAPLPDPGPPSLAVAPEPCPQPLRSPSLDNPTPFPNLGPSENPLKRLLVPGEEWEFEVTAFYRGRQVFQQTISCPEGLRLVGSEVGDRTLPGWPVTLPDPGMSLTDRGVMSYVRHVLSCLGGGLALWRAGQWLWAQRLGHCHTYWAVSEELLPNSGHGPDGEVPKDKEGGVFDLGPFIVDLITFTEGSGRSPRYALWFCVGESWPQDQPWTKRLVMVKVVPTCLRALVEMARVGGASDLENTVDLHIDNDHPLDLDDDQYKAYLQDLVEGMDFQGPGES
Sequence,fitted relative affinity [z-score]
TTAGGGATCGGTCTCGGTTAGTGCTAG,1.63
GACGGACTGCTTATCCTGAGGTGCTAG,-0.46
TATAATATATATTCATATATGTGCTAG,0.72
GACGATTTCGGTTATCGAGACGTGCTA,4.15
TCAACACTCACCATGGCACTGTGCTAG,-0.24
TTAGATGTCAGTTTCGATTAGTGCTAG,4
TTGGGTATCCTACTGCTTTAGTGCTAG,1.27
GTAGGTTTCGACTTTCGGTTAGTGCTA,4.01
CCATTTTTCTAGTCCAGACTGTGCTAG,1.54
GACGGACTGGGTATCGGGAGGTGCTAG,-0.452
TGTGCCATATTTATCTGCAAGTGCTAG,1.15
GACGGTATCGGTTTCGGCACGTGCTAG,6.92

# Study 7 — method: universal PBM; molecule type: double-stranded DNA, one strand shown; medium: in vitro; concentration: not given; direction: higher = stronger binding
# Target: Sal-like protein 4, full length isoform B (SALL4, Homo sapiens, UniProt Q9UJQ4-2, residues 1-616)
# Notes: 8-mer, flanks averaged, mean of replicates
# Construct (chain): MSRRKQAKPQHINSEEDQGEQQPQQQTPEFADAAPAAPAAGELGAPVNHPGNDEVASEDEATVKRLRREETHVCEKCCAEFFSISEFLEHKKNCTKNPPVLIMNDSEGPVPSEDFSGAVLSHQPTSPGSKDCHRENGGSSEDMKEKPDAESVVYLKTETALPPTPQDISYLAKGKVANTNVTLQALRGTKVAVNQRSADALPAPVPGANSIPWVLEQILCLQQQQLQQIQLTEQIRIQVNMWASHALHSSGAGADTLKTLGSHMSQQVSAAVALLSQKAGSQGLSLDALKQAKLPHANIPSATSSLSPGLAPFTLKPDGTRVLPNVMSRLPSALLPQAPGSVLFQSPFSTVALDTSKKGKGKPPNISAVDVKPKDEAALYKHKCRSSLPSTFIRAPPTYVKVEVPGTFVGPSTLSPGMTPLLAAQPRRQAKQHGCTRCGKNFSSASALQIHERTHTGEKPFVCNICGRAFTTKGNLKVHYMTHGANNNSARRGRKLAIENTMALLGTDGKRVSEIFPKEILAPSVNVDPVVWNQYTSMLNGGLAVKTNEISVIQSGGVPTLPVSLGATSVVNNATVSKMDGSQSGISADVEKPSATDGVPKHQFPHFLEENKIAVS
Sequence,E-score
ATTTCTCA,0.199
CCTCAGAC,-0.112
TGCCCCAA,0.0155
ATGGATAA,0.264
ACGTCAGC,-0.0986
AAACCAAA,0.119
CTAAGGCC,-0.177
GGGGATAA,0.202
ACTCACCT,-0.187
CTGCTCTC,-0.0924
AATCGGAA,-0.00077
CTCCTGGA,-0.251
CCTACGTA,0.18
AGCACCAT,-0.0898
CTGATAGC,-0.0864
AGGGAACG,-0.178
GCAGGGAC,-0.276
ACCGTAAG,-0.0255
AAAGGGCA,0.0291
AAGACTCT,0.0123
ATGAAGCC,0.0107
ATACAGGC,0.152
ATACACAA,0.323
GGTTAAAA,0.106
TCTTGACA,0.115

# For quick reference, copied from above (study 3):
Change,relative binding score [%]
H122W,-0.0739
A175D,74.9
G21I,64.5
T39F,48.7
D65V,31.4
V40K,3.9
Y115P,-3.22
